# Measurements pooled from the literature.
# A part holds a random share of what one study measured. Positions count from the first letter of the parent shown.

# Study 1
# Target: CCNF, cyclin fold, Cln2 fusion (human)
# Technique: yeast growth competition, sequencing
# Sample: yeast
# Setting: strong parent motif
# Relative to: not given
# Direction: higher = stronger binding
# Starting sequence: CDKN1A docking peptide (human); SKACRRLFGPVDS; partner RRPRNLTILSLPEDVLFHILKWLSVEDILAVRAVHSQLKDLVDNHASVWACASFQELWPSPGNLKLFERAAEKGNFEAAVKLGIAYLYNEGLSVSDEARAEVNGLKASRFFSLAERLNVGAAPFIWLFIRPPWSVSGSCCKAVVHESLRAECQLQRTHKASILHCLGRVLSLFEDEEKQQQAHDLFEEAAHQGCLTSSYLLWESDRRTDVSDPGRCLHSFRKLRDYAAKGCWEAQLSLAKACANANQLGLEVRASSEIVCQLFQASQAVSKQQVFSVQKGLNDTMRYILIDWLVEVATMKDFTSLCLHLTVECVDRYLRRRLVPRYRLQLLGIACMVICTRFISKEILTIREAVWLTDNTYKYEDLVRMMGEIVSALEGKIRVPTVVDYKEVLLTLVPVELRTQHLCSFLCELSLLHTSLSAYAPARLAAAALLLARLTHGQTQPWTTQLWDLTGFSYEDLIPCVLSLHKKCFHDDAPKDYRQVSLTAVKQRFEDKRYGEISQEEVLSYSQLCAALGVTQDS
Change,normalised enrichment score
SKAARRLFGPVDS [C4A],6.12
SKACIRLFGPVDS [R5I],0.909
SKACRRLYGPVDS [F8Y],4.03
SKACRRLFGPVCS [D12C],7.06
SKACRRLGGPVDS [F8G],0.265
SKHCRRLFGPVDS [A3H],5.09
SKACRRLFQPVDS [G9Q],7.39
SKACRRPFGPVDS [L7P],0.431
SKACKRLLGPVDS [R5K F8L],0.256
SKACRRLFGPEDS [V11E],7.57
SKACRCLFGPVDS [R6C],6.71
SKACRVLFGPVDS [R6V],6.33

# Study 2
# Target: RNA binding protein fox-1 homolog 2, RRM domain, GST-SBP tag (RBFOX2, Homo sapiens, UniProt O43251-10, residues 100-194)
# Technique: RNA Bind-n-Seq
# Form: RNA
# Sample: in vitro
# Concentration: 365 nM
# Setting: natural RNA segment, single round, ends assumed
# Relative to: no-protein control
# Direction: higher = stronger binding
# Residues (chain): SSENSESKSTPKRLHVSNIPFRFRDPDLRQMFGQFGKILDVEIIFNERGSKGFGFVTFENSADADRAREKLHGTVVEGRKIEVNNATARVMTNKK
Strand,RBNS enrichment (R)
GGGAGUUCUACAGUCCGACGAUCAGAUCAGCUCUAAGGUGCUGACAGCGACCCUGCUCAGAGCACCAGGUUUCAGGGCACUGAAGCCUUCCCGAAGUGCGUACACAUUCUGGGGAGUGUGCUCCAGCUGCCCCUGGAAUUCUCGGGUGCCAA,0.173
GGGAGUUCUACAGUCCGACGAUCGUUCUCUCCUGUGUAAAUGUCACGCCCCACCCCUGUUUCAUGUGGGCACUAACACGUGUGCGUUCCUGGCGGGCACACUCAGGACCGUGCCUCACAGGGCCCACUCCCUGUGGAAUUCUCGGGUGCCAA,0.429
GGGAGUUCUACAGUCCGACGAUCGAUGGCUCUUGUUCAGUCAAGACCCCAGACUCUGGCCACAAAAAUGCCAUAAUGCCUGUUGGUAUUUGGCAAAGCACUGACCCGUGUCCUCCGUUGCUCGCACUGGGGUCUGGAAUUCUCGGGUGCCAA,0.322
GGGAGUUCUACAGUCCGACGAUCGGAACACUGUACUGGCCACUUACCCUCUGGGGCCUCAGCUUUCCCUCCGGAAGGCUGGGAGGAGGUGGGCUAGAUGAUCUUUGGAGCUUAAGGAGUCCCAGCCCUUUCUCUGGAAUUCUCGGGUGCCAA,0.435
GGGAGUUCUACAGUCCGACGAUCGAGUGAACUACACAUAGACCACACUGCGGGGCGAGAGCAUUACAUAACAUGGCCACUAGGAGGGUUUGGUUUGGGGGAAAUGAGGUGUGAGGCUUUGGGGUUUGUUUUUGUGGAAUUCUCGGGUGCCAA,1.81
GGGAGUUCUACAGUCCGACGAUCAUCCCUCACAUCCUGUCACGGCAGGGGCUGUGCAGGGUACUGCCCUCCCUCUGCCCAGCAGCCCCAUCUCUCCAUCACCCUGAGCCCCUCAGGUCCCAACUGAAUGUCUGUGGAAUUCUCGGGUGCCAA,0.533
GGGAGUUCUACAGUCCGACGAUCACUACUAUUCAAGUAGAGAUUUGCCCCAACACAUUAACUUUUUCCUUGGAGAUUUAUAUGGUCCUGCAUUUUGUCCUGUGCUCACAAUGUGAAGUGUCUUCUGUAUUCAAUGGAAUUCUCGGGUGCCAA,2.48
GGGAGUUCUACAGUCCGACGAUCACAUGAGUAAUCAAAAUUAAAUUAUAGCAUAAUGAAAUUAGACUCUUAACAGGUACGGCACACACAAGUUAAUAGUACUCUGCUAUAGGUGCUAUGUUACUUACAAGUAUUGGAAUUCUCGGGUGCCAA,0.382

# Study 3
# Target: Prothrombin, mature alpha-thrombin (F2, Homo sapiens, UniProt P00734)
# Technique: aptamer microarray, sandwich
# Form: DNA with 2'F-ANA
# Sample: in vitro
# Concentration: 200 nM
# Setting: whole 15-mer aptamer, many near background
# With: Cy3 exosite-II aptamer, 400 nM
# Direction: higher = stronger binding
# Strand: GGTTGGTGTGGTTGG
Modification,mean fluorescence intensity [a.u.]
2'F-ANA at 1 2 3 5 9 10 11 12,48.9
2'F-ANA at 2 9 11 12 13 14 15,148
2'F-ANA at 6 7 8 9 11 12,625
2'F-ANA at 1 3 4 6 7 10 11 12 13 14 15,56.6
2'F-ANA at 1 3 4 5 7 8 11 15,55.5
2'F-ANA at 2 8 11 13 14 15,124
2'F-ANA at 1 4 7 8 9 11 13 14,52.6
2'F-ANA at 6 9 10 11 12 13 14,95.2
2'F-ANA at 1 5 8 10 12 15,61
2'F-ANA at 1 2 4 7 8 11 12 13 14,61.7
2'F-ANA at 2 3 5 7 8 9 12 13 15,158
2'F-ANA at 2 3 4 5 6 7 8 13 15,61.4

# Single results of other studies
Molecule,target,test,test system,conditions,how to read,quantity,value
"PhoQ, residues 284 288 289 292 302 303 AGCYAI","PhoP, residues 12 14 15 18 19 LWHCS (Escherichia coli, UniProt P23836)","Sort-seq, measured: YFP reporter",E. coli,"PhoQ-PhoP variant library, with: 10 µM Mg2+","relative to: high Mg2+ state, higher = stronger signaling",fold induction,18.5
